Published values collected from several papers.
± marks the error that the study gave.

CN[C@@H]1[C@H](O)[C@H](NC)[C@H]2O[C@]3(O)[C@H](O[C@@H]2[C@H]1O)O[C@H](C)C[C@H]3NC(=O)Cc1ccc(Cl)cn1
inhibition (Alpha-1B adrenergic receptor (Adra1b, Rattus norvegicus, UniProt P15823); ligand displacement, radioligand; 10 µM): -5%

N[C@H](C(=O)N1CCCC1)C1CCN(c2nccc3c(-c4ncc(Cl)cc4Cl)cccc23)CC1
inhibition (Type-1 angiotensin II receptor (AGTR1, Homo sapiens, UniProt P30556); functional response, antagonist; 10 µM): 33%

CN(/N=C/c1ccccc1C(=O)O)c1nc(-c2ccccc2Cl)cs1
inhibition (Dual specificity protein kinase CLK1 (CLK1, Homo sapiens, UniProt P49759); enzyme activity, inhibitor; 1 µM): -3.25%

Cc1ccc2c(n1)c(-c1cccc(S(C)(=O)=O)c1)c(C)n2C/C(F)=C/CN
inhibition (Cysteinyl leukotriene receptor 1 (CYSLTR1, Homo sapiens, UniProt Q9Y271); ligand displacement, radioligand; 10 µM): 8%

C=CC(=O)Nc1cc(-c2nn(C3CCC(N4CCN(C(C)=O)CC4)CC3)c3ncnc(N)c23)ccc1Oc1ccccc1 (centres unmarked)
inhibition (Wee1-like protein kinase (WEE1, Homo sapiens, UniProt P30291); inhibitor, KiNativ profiling; biochemical; 2 µM): 3.6%

Cc1cc(Nc2nc(C[C@@]3(C(=O)O)CCN(Cc4cccc(Cl)c4F)[C@H](C)C3)cc(C)c2F)[nH]n1
inhibition (Potassium voltage-gated channel subfamily KQT member 1, with KCNE1 (KCNQ1, Homo sapiens, UniProt P51787); inhibitor; 10 µM): 7.6%

CC12CCC(=O)C=C1CCC1C2C=C(c2cccnc2)C2(C)C(=O)CCC12 (centres unmarked)
inhibition (7-alpha-hydroxycholest-4-en-3-one 12-alpha-hydroxylase (Homo sapiens, UniProt Q9UNU6, W281F); inhibitor; 80 µM, added: 7α-hydroxycholest-4-en-3-one): > 40%

C/C(=N\OCCCN1CCCCC1)c1ccc(C(F)(F)F)cc1
inhibition (Beta-1 adrenergic receptor (ADRB1, Homo sapiens, UniProt P08588); antagonist, cAMP; 10 µM): 5.77%

O=C1NC2(CC2)COc2ncc(F)cc2[C@H]2COCCN2c2ccn3ncc1c3n2
organ weight (Sprague-Dawley rat, female, liver; oral, 10 mg/kg/day, 4 weeks): 12.1 ± 1.88 g

C[C@H](NCc1ccc(-c2ccc(C(F)(F)F)cc2)cc1)C(N)=O
inhibition (Tyrosine-protein kinase receptor UFO (AXL, Homo sapiens, UniProt P30530); cell-free assay, competition with immobilised ligand; 1 µM): 17%

COc1ccc(F)cc1S(=O)(=O)Nc1cnc2c(c1)C(=O)NCCO2
inhibition (NMDA receptor Phencyclidine site; radioligand binding; 10 µM): -1%

Cc1ccccc1CCc1nnc([C@H]2OCC[C@H]2Cn2ccnc2)o1
inhibition (Cholinesterase (BCHE, Homo sapiens, UniProt P06276); enzyme activity, inhibitor, Ellman; 10 µM): 37.8%

O=C(O)c1ccc(-c2nc(-c3ccccc3Cl)c3sccn23)cc1
inhibition (5-hydroxytryptamine receptor 1A (HTR1A, Homo sapiens, UniProt P08908); binding; 10 µM): 38%

CN(C)[C@H]1C[C@@]23CC[C@@]4(O2)C(=CC[C@]2(C)[C@@H](c5ccc6ccncc6c5)CC[C@H]24)C=C3[C@@H](O)[C@@H]1O
inhibition (Serine/threonine-protein kinase TAO2 (TAOK2, Homo sapiens, UniProt Q9UL54); ATP probe labelling, inhibitor, KiNativ profiling; 1 µM): 14.3%

O=C(O)c1ccccc1/C=N/Nc1nc(-c2ccccc2Cl)cs1
inhibition (Protein-tyrosine kinase 2-beta (PTK2B, Homo sapiens, UniProt Q14289); enzyme activity, inhibitor; 1 µM): -6.36%

CS(C)(=O)=Nc1ccc(-c2ccc(-c3nc4cc(O[C@@H]5CO[C@H]6[C@@H]5OC[C@H]6O)[nH]c4cc3F)cc2)cc1
inhibition (Serine/threonine-protein kinase 17A (STK17A, Homo sapiens, UniProt Q9UEE5); enzyme activity, inhibitor; 10 µM): 0%

CC(C)[C@H]1NC(=O)C[C@H]2/C=C/CCSSC[C@@H](NC1=O)C(=O)N[C@H](Cc1cccc3ccccc13)C(=O)NCC(=O)O2
inhibition (Mast/stem cell growth factor receptor Kit (KIT, Homo sapiens, UniProt P10721, V654A); enzyme activity, inhibitor; 10 µM): -1.5%

For quick reference, copied from above:
CS(C)(=O)=Nc1ccc(-c2ccc(-c3nc4cc(O[C@@H]5CO[C@H]6[C@@H]5OC[C@H]6O)[nH]c4cc3F)cc2)cc1
inhibition (Serine/threonine-protein kinase 17A (STK17A, Homo sapiens, UniProt Q9UEE5); enzyme activity, inhibitor; 10 µM): 0%

CC(C)[C@H]1NC(=O)C[C@H]2/C=C/CCSSC[C@@H](NC1=O)C(=O)N[C@H](Cc1cccc3ccccc13)C(=O)NCC(=O)O2
inhibition (Mast/stem cell growth factor receptor Kit (KIT, Homo sapiens, UniProt P10721, V654A); enzyme activity, inhibitor; 10 µM): -1.5%

C[C@H](NCc1ccc(-c2ccc(C(F)(F)F)cc2)cc1)C(N)=O
inhibition (Tyrosine-protein kinase receptor UFO (AXL, Homo sapiens, UniProt P30530); cell-free assay, competition with immobilised ligand; 1 µM): 17%
